# Published values gathered from unrelated publications.
# A part holds a random share of what one study measured.

# Series 1
# Target: Eukaryotic initiation factor 4A-I (EIF4A1, Homo sapiens, UniProt P60842, residues 1-406, full length assumed)
# UniProt P60842, sequence (whole entry, looked up): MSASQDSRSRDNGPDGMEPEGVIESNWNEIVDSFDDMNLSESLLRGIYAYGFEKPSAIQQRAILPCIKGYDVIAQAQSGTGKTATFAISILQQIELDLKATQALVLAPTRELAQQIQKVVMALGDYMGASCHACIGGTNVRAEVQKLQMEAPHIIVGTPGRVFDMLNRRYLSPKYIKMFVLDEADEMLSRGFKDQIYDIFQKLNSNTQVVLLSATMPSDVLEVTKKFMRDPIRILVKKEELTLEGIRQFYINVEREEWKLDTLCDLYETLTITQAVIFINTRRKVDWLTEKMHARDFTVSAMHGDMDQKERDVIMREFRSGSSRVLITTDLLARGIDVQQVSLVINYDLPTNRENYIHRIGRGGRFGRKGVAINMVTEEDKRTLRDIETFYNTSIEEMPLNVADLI
# Technique: RNA Bind-n-Seq
# Molecule type: RNA
# Matrix: in vitro
# Concentration: 90 pmol
# Setting: 4-mer, random 30-nt RNA, single round
# Together with: 3 µM DMDA-PatA, 2 mM ADP, 2 mM phosphate
# Reference: input library
# Reading: higher = stronger binding
Oligonucleotide,4-mer enrichment [fold]
GUGG,1.63
GCAU,0.825
UUAG,1.08
CAGU,0.861
UCCU,0.587
GCGC,1.39
UAGU,1.07
ACCU,0.575

# Series 2
# Target: Myc proto-oncogene protein, bHLH-zipper, MAX partner unstated (MYC, Homo sapiens, UniProt P01106, residues 368-449)
# UniProt P01106, sequence (368-449, looked up): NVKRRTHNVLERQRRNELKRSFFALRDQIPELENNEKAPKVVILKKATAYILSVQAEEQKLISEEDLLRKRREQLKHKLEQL
# Technique: protein-binding microarray
# Molecule type: double-stranded DNA, one strand shown
# Matrix: in vitro
# Concentration: not given
# Setting: k-mer, scored over probes, only values ≥0.25
# Reading: higher = stronger binding
Oligonucleotide,E-score
ACAACATG,0.346
CCCCAAGC,0.288
ATGTGCCC,0.356
ACCCCATG,0.394
ACTCGTGC,0.379
CCGGCGCG,0.264
ATACACGA,0.259
GCATGGTA,0.423

# Series 3
# Target: Centromere-binding protein 1, full length, His-tagged (CBF1, Saccharomyces cerevisiae, UniProt P17106, residues 1-351)
# UniProt P17106, sequence (whole entry, looked up): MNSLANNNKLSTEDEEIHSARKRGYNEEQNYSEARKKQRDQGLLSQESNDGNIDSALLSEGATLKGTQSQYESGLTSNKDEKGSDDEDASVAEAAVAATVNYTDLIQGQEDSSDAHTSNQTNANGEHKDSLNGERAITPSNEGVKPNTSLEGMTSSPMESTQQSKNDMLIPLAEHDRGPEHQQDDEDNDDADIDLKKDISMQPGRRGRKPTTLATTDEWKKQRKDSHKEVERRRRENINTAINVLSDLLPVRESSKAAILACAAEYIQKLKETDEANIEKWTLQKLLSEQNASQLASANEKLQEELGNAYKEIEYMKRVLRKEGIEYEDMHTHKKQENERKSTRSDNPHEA
# Technique: competition protein-binding microarray
# Molecule type: double-stranded DNA, one strand shown
# Matrix: in vitro
# Concentration: 2 µM
# Setting: whole 60-bp probe, lowest competitor level
# Together with: Pho4 competitor, 0.05 µM
# Reading: higher = stronger binding
Oligonucleotide,fluorescence intensity [a.u.]
CACATAAGGATAATTCACCTGCCAAGACGGCACAGGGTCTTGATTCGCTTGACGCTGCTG,68.6
CTTTCCCGATCTTGACCCGTGGGTGTAGCACATTTGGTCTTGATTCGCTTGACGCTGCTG,75.5
CTTTTGGATTCCCATCACGTCATGAAAGATTCTTCTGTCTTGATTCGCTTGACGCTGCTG,92.8
AGGGTCTAGTCTATCAGCCTCCGAAGGAGTTGTATAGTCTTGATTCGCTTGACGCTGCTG,45
CGAAATAAAAGCCATCACGTGGAGTGTAGCACCGCCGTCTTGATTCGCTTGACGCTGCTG,1980
ATAAAATTTCAGAATCACATGTTCGTAAAACAACCGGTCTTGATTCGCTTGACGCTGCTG,1530
TGTTGAGTTACACCCCGCGTGCTAAAAAAGGGGTGAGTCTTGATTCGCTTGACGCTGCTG,101
GTGAACTACAACAAAAAGAGAAGGCTGGTAAGGGCAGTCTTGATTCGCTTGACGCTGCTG,69.4

# Further values, each from its own experiment
Compound,system,conditions,endpoint,result
O=c1[nH]nc(CNS(=O)(=O)c2cc(Cl)sc2Cl)[nH]1,"human, microsomes or S9","2 µM, 0.5 h",remaining compound,78.2%
